Experimental data collected from several papers.
Lines come from different studies, so protocols differ. ± marks the error that the study gave. The star is where a group is joined.
Chain of UniProt O96013 (whole entry, looked up): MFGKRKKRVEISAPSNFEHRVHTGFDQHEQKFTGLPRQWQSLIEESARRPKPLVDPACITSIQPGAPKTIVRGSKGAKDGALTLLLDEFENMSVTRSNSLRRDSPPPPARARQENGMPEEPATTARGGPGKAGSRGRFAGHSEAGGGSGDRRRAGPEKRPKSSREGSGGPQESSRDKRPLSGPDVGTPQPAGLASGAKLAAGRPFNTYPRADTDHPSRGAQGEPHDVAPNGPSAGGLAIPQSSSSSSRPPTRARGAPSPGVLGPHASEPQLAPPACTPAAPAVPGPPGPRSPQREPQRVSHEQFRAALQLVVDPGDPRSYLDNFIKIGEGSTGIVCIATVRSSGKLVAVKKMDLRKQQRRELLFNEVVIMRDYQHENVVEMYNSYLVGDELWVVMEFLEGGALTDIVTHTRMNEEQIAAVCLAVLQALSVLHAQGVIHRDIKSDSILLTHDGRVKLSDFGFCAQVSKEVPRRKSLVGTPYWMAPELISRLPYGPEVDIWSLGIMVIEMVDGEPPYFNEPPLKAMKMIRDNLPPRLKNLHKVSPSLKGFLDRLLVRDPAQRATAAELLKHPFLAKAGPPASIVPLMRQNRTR
Chain of UniProt P42574 (whole entry, looked up): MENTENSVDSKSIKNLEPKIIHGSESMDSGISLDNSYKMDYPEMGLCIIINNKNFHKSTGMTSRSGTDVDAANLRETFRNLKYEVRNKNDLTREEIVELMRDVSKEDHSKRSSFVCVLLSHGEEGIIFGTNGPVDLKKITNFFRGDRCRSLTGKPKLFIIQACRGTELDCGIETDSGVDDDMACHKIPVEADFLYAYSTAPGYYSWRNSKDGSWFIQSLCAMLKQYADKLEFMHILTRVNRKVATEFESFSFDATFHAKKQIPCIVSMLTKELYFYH
Chain of UniProt P41240 (whole entry, looked up): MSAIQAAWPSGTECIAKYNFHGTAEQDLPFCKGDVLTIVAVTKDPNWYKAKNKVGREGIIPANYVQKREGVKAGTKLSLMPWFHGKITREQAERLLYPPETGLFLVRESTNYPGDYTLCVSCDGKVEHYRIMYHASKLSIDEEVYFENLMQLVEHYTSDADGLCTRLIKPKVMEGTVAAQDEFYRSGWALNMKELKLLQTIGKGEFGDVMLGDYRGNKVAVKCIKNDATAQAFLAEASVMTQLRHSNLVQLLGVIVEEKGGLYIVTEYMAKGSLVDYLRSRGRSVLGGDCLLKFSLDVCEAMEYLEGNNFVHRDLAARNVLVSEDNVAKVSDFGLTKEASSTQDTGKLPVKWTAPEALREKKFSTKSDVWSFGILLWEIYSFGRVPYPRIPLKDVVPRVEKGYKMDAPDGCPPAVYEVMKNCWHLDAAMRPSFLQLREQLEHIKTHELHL
Chain of UniProt P29804 (whole entry, looked up): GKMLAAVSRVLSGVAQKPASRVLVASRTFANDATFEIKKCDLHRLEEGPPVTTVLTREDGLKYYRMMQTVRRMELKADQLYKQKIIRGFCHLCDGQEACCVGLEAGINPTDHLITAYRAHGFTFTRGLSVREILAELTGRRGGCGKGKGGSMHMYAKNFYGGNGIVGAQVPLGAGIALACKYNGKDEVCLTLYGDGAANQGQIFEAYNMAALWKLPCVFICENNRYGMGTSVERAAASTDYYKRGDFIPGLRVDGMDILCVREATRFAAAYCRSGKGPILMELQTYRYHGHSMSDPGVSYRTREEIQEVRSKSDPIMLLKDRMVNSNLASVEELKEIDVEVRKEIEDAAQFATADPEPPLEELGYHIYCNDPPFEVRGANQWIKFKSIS
Chain of UniProt O60704 (whole entry, looked up): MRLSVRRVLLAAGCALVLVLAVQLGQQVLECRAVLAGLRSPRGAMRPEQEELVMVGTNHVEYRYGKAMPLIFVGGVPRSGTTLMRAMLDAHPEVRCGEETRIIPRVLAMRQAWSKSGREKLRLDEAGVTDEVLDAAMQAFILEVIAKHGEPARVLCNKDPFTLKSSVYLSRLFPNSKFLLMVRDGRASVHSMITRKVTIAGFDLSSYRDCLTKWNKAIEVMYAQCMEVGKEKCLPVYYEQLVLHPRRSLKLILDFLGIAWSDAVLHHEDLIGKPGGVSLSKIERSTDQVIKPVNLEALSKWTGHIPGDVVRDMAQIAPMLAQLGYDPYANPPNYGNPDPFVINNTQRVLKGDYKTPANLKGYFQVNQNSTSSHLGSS
Chain of UniProt O60762 (whole entry, unmodified, looked up): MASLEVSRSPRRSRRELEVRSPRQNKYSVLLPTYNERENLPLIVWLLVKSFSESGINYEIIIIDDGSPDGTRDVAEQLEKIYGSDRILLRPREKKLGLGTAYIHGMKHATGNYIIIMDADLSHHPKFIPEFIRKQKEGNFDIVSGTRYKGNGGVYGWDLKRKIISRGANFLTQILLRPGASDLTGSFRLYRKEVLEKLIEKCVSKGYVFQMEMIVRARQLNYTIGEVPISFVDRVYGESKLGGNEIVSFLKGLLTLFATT

Molecule	target	assay	system	setting	Km [µM]
OO	ancestral DyP peroxidase D222A	peroxidase activity, substrate		pH 3.0, 25 °C, with: ABTS 10 µM	1930
YKKRLSVELT	PAK4 (Homo sapiens, UniProt O96013)	kinase activity, substrate	peptide	pH 7.4, 30 °C, with: ATP 20 µM	600
CC=O	aldehyde oxidase F13 (Pseudomonas sp. MX-058)	substrate, peroxidase-coupled H2O2		pH 7.0, 30 °C, with: O2 co-substrate	4940
Ac-QDEVD-pNA (N-acetyl, C-pNA; pNA = O=[N+]([O-])c1ccc(N*)cc1)	Caspase-3 (CASP3, Homo sapiens, UniProt P42574)	substrate hydrolysis, substrate, colorimetric		pH 7.5	54 ± 3
O=CC=O	aldehyde oxidase F13 (Pseudomonas sp. MX-058)	substrate, peroxidase-coupled H2O2		pH 7.0, 30 °C, with: O2 co-substrate	22800
Nc1ncnc2c1ncn2[C@@H]1O[C@H](COP(=O)(O)OP(=O)(O)OP(=O)(O)O)[C@@H](O)[C@H]1O	kinesin-II homo-20, Caenorhabditis elegans	microtubule gliding velocity, substrate			84
Mca-PLGL-Dpa-AR-NH2	MMP14 (Homo sapiens, UniProt P50281)	substrate, FRET peptide cleavage		pH 8.0, 37 °C	2.14 ± 0.15
O=C(O)C(=O)O	oxalyl-CoA synthetase, Methylorubrum extorquens	substrate		with: ATP and CoA co-substrates	9 ± 1
dolichyl phosphate	Dolichol-phosphate mannosyltransferase subunit 1, with DPM2 and DPM3 (Homo sapiens, UniProt O60762, G152V)	mannose transfer, substrate	fibroblast membrane fraction	patient cells, with: GDP-[3H]mannose 5 µM	11.5
VTDYYYPDI	Protein-tyrosine sulfotransferase 2 (Homo sapiens, UniProt O60704)	sulfation, substrate, LC-MS	peptide	pH 7.5, 30 °C	23.9
O=c1c(O)c(-c2cc(O)c(O)c(O)c2)oc2cc(O)cc(O)c12	Cu-pirin-like protein (Stutzerimonas stutzeri)	flavonol dioxygenase activity, substrate		pH 7.5, 25 °C, 5% DMSO	9.4
FEEPIYIEPIDFE	CSK (Homo sapiens, UniProt P41240)	substrate, enzyme-coupled	peptide	pH 7.4, room temperature, with: ATP 1 mM, MnCl2 5 mM	150 ± 15
CC(=O)C(=O)O	pyruvate dehydrogenase complex (Sus scrofa, UniProt F1SGH5+P29804)	enzyme activity, substrate, 14CO2 release			23000
O=c1cc(-c2ccc(O)cc2)oc2c([C@@H]3O[C@H](CO)[C@@H](O)[C@H](O)[C@H]3O)c(O)cc(O)c12	beta-fructosidase (Glutamicibacter nicotianae)	acceptor substrate		pH 6.47, 35 °C, with: sucrose 50 mM	116
COC(=O)[C@@H](N)CCSC	S-adenosylmethionine synthetase (Campylobacter jejuni)	substrate		pH 7.6, ambient, with: ATP co-substrate	520 ± 60

A few entries again:
Molecule	target	assay	system	setting	Km [µM]
O=c1c(O)c(-c2cc(O)c(O)c(O)c2)oc2cc(O)cc(O)c12	Cu-pirin-like protein (Stutzerimonas stutzeri)	flavonol dioxygenase activity, substrate		pH 7.5, 25 °C, 5% DMSO	9.4
FEEPIYIEPIDFE	CSK (Homo sapiens, UniProt P41240)	substrate, enzyme-coupled	peptide	pH 7.4, room temperature, with: ATP 1 mM, MnCl2 5 mM	150 ± 15
